Assay results pooled from the literature.
A part holds a random share of what one study measured.

Sample 1
Target: Fragile X messenger ribonucleoprotein 1, C-terminal low-complexity region (Fmr1, Mus musculus, UniProt P35922)
Method: RNA Bind-n-Seq
Molecule type: RNA
Medium: in vitro
Concentration: 200 nM
Setting: whole 134-nt RNA, ends assumed
Added: 150 mM LiCl
Relative to: input library
Direction: higher = stronger binding
Each molecule: 7-deaza-guanosine replaces G
Sequence | log2 enrichment
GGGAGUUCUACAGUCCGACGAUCCUCAAGUCCUGUGCUACACAUCGUAUGUACCGAAUCGGGAAAGGAAAGGAAAGGAAAGUAUUAUGUUACGCCGUUCGGAUCUGCACUUCCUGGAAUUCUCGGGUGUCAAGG | -0.758
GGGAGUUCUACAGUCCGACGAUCUAACUUUAGAGGAGGAUCUGAUGGAUAUGGCAGUGGACGUGGAUAUGGGGAUGGCUAUAAUGGGUAUGGAGGAGGACCUGGAGGUGGCAAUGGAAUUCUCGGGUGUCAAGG | 0.529
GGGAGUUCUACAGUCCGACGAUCGGGGAGGUGGAUUUUGUUUAUUUUUUUAGCUCAUUUCCAGGGGUGGGAAUUUUUUUUUAAUAUGUGUCAUGAAUAAAGUUGUUUUUGAAAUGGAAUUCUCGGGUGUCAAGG | 0.883
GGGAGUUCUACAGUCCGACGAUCCCUCAAGUCCUGUGCUACACAUCGUAUGUACCGAAUCGGUGGUUUUUGGAGGAAAGUAUUAUGUUACGCCGUUCGGAUCUGCACUUCCAGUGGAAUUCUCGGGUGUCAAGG | 0.545
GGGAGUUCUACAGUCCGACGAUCGUUUGAUGAUCGUGGACGGAGUGAUUACGAUGGCAUUGGCAGCCGUGGUGACAGAAGUGGCUUUGGCAAAUUUGAACGUGGUGGAAACAGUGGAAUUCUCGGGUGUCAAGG | 1.27
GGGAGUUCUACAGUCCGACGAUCUCCUGUGCUACACAUCGUAUGUACCGAAUCGGGAAAAAAAGGGAAAGGGUUUUUUUGGGAAAGUAUUAUGUUACGCCGUUCGGAUCUGCAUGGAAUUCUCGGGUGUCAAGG | -1.22
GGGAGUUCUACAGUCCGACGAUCAAGUCCUGUGCUACACAUCGUAUGUACCGAAUCGGGUGGGAAAAAGGGUUUUUGGGAAAGUAUUAUGUUACGCCGUUCGGAUCUGCACUUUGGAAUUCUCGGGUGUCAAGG | -1.88
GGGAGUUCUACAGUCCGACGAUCUGUCCAGCUCUGAAGGGCAAAGUGCAGAAGAUCCUAAUCUGGAAGUGGGGUCAGCCACCAUCUCCCACACCAGUGCCUCGGCCUCCAGAUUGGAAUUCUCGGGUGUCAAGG | 0.717
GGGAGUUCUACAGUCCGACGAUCCAAGUCCUGUGCUACACAUCGUAUGUACCGAAUCGGUUUGGAAAGGAAAAAAAGGAAAGUAUUAUGUUACGCCGUUCGGAUCUGCACUUCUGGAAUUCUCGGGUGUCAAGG | -0.862
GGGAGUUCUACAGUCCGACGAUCAAGUCCUGUGCUACACAUCGUAUGUACCGAAUCGGAAAGGUUUUUUUGGAAAAAGGAAAGUAUUAUGUUACGCCGUUCGGAUCUGCACUUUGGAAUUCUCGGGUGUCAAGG | -2.43
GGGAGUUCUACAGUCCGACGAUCUUUGGCAAUGAGAUCUAAACCAGACAAAGACCUCCUUAUGGAAGAAGAUGACAUGGCCUUGGCAAAUGUAGUCAUGCAGGAAGCUCAGAAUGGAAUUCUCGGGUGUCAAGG | -1.54

Sample 2
Target: Histone acetyltransferase KAT6A, winged helix 1, GST fusion (KAT6A, Homo sapiens, UniProt Q92794, residues 1-85)
Method: protein binding microarray
Molecule type: double-stranded DNA, one strand shown
Medium: in vitro
Concentration: not given
Setting: 8-mer, flanks averaged, mean of 2 arrays, mostly near background
Relative to: not given
Direction: higher = stronger binding
Construct (chain): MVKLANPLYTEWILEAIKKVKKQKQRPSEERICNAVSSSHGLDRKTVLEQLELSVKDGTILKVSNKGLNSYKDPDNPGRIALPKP
Sequence | E-score
CAGTATAG | -0.146
CACCTCCC | -0.0436
ACTCCACA | -0.269
CTTACGCC | 0.0927
GAACCAAC | -0.25
AACGGCAG | 0.234
AGCCGGAG | 0.173
AGGAAGCA | -0.274
CTTATTCA | -0.201
CCCCGAGG | 0.101
ACCGTCAA | 0.148
ATTAACTC | -0.0785
CAACACAA | -0.308
ATCGCTGC | 0.189
GAACATGA | -0.066
ACGAAAGC | 0.0481
GGGTCACA | -0.00914
ATGCACTC | 0.155
CCCTAGGA | -0.24
ATAGCCAG | -0.227
AGTGGGTC | -0.126
AGCCTAGG | -0.0703
CGTGCTAA | -0.107
ATCCCCTA | -0.183
ACAGATCT | -0.0674

Sample 3
Target: Centromere-binding protein 1, full length, His-tagged (CBF1, Saccharomyces cerevisiae, UniProt P17106, residues 1-351)
UniProt P17106, sequence (whole entry, looked up): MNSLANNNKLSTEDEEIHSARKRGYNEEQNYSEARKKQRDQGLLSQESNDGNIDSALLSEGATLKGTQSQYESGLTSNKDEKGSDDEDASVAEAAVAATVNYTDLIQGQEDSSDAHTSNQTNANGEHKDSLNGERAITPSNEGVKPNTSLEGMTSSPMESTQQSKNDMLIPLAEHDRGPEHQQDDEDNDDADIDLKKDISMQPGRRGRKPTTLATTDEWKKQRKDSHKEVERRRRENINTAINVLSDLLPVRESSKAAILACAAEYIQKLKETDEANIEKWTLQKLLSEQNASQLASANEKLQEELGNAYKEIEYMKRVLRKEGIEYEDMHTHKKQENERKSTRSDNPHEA
Method: competition protein-binding microarray
Molecule type: double-stranded DNA, one strand shown
Medium: in vitro
Concentration: 2 µM
Setting: whole 60-bp probe, lowest competitor level
Added: Pho4 competitor, 0.05 µM
Direction: higher = stronger binding
Sequence | fluorescence intensity [a.u.]
ACTCCCTGGAAAAAGCACGTGCCGAGCTGGATCTGCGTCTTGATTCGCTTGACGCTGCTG | 1970
CATACCCAACCTTGTTCGGTGGGTGAAGATATTTGTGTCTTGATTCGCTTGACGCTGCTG | 78.8
CTTGTCAAAATCCGTCACGTGGTGAAGGGTCTGGTTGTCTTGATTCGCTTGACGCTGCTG | 5000
AAAGCGGTAATTTGTACGGTGGGTGCAGATATCTATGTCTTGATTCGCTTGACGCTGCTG | 79.5
AGGGCGGGAATTTCACATGTGGCTTTTTGCATAATCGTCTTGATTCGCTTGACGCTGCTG | 119
CGTCCTAGTGATTGTCTCGTGGGTGCCATGAGGAAGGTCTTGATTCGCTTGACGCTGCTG | 137
TTTCTCGAATTTTTGCACGTGAAAACGGTGAACCTCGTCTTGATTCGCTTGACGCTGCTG | 1370
GTCTTGTCTCATTGGCGCGTGGGTGTCCCCACTTCAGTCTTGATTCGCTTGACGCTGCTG | 88.6
CTAACGAAGGTTTGATACGTGGGTGACAAGCCAAGTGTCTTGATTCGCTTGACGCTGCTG | 76.5
CTTCTGTAAATTTGTGTTGTGGGTGGACGCGCCCCGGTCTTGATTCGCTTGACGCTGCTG | 93.2
AAAGCGGTAATTTGTCATGTGGGTGCAGATATCTATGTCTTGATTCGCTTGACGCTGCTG | 217
CTTTCCCGATCTTGTCACGTGACTTTAGCACATTTGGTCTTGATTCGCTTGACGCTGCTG | 23000
TGCGCAACAACTTGTCACGTGGGTGTATGTCTAGAAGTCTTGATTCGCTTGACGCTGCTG | 4240
TAAACTCACCTAATTCGCATGACAAGGTCCCTGAAAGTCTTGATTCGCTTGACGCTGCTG | 68.9
TACTTTTGATGACTGTTTCTCAACTCCATGTCATTCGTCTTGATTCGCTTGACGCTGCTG | 85.1
CGGGGTTAAGTTTGGGTTGTGGGTGGCTTGCAGCAGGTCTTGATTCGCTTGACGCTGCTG | 71.9
AAAACTTGGTTATCGCACGCTGAAAAGCGCGTTCTCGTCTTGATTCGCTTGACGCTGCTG | 71.9
GCCGTTCAGCGACTCCATGTGCTCGGGAATCCGCTGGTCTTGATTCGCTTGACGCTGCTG | 83.5
AGACCAGTGTATATTCAGCTGATCCCAATTATCATTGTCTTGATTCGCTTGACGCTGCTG | 132
CTCTTTGGTCTTGGCCAGAGGTCCCAGAGTCGAAAAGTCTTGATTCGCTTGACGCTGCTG | 48.5
AGTTGCTTTCATTTCGGCGTGATGGTACGGCACCCAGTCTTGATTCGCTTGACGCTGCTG | 96.3

Sample 4
Target: RNA binding protein fox-1 homolog 2, RRM domain, GST-SBP tag (RBFOX2, Homo sapiens, UniProt O43251-10, residues 100-194)
Method: RNA Bind-n-Seq
Molecule type: RNA
Medium: in vitro
Concentration: 365 nM
Setting: natural RNA segment, single round, ends assumed
Relative to: no-protein control
Direction: higher = stronger binding
Construct (chain): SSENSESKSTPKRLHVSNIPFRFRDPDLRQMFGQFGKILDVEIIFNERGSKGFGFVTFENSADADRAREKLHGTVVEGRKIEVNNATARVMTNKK
Sequence | RBNS enrichment (R)
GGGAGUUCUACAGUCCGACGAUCACAACCAUGUCUCAGACUCAAGAGCUCCGUCAACAGAGCCUCGGAACUGGCCACUCAAUACAGUCUCUCCCUCAAUAGCACAGAAGGUCCUUGAGCUCCCAGGCCGCAGCUGGAAUUCUCGGGUGCCAA | 0.811
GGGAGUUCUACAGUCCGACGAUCGGAUCGCAGCAUCACGAAGGUGGAGAAGCCCUGCUCUAUGGGAAAUGUCCCUGGUAUCUCUGUGGUCAACUAAGAGUGGUUCUACAAAGAUAGUCCUCAGUGAAAACAGGUGGAAUUCUCGGGUGCCAA | 0.389
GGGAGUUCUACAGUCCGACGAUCUGCCAAAAACAAGAGGAGGAAACUGGCCCCAUACAGCCAUACCUGGAGCUGGAUCUGACCCUGAUUGGGGAGAGCUGAGUGCUGAGCCUUGGGAGCCCCUGCCAGCCACCUGGAAUUCUCGGGUGCCAA | 0.456
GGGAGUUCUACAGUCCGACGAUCGAUCCGUCUCGGCUACUGCAGAGCACUGACUGCUCUGAGGAGAGGGAAGAGGGUCUGCUGGGGGUUCCUGUGGCCUUCCGCUGUGUCUGGACAACACUAACACAGGACCCUGGAAUUCUCGGGUGCCAA | 0.383
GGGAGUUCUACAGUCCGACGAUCUUCACCGUCUAGCUUCCCCAGGGUAGGAAAGGUCUCCCACAUUAUGCAAUAAUAAAAUCAGCAUCUGGGUCUUUGCAGCUGUCAGUUGUUCUUUAAACUCUAGGAUCCAUUGGAAUUCUCGGGUGCCAA | 0.697
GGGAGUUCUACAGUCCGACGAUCGGGGCGGAUUGAGAAGAAUCUUCCGUAGCCUGAGCUGUCCCUCCUGUUUUGACGGCACAUGUGCCAGUCAAGGGACAUGGGACAGUCGCGCCACUUUGCAUUCCCACGGGUGGAAUUCUCGGGUGCCAA | 0.305
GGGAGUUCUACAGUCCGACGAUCUGUGUAGCCUACUGACAGCUUUGGUUAACCCACUGCACAUCACCCAGUCAUUUACCCAACUUACUCUAGAAAUGUCCACAGCUAAGGAAGGCUCCUGAGCCAGUCAGGCGUGGAAUUCUCGGGUGCCAA | 0.397
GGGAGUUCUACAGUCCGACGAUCGGUUAUGCAGCUUAAGUUCAGUCUUCUUUAUGCUGCGAUUGAUUUCCACCUCAGUGGCUUAGCCUUUGGGACAGUGGAUACUGCAACAGCCAAGAACUCUUGGUUAUCCGUGGAAUUCUCGGGUGCCAA | 0.226
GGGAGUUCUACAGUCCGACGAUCGGCUACAGCCCUGCUGCUGCUCCCUUCCUUCUUCUGUCCUGUUUCCAGCCUUGCAAGAAGGCUAUUCACAAUUAGGCCUGGCUGCUUCUCUCAUUUUUUUCCUCCCAGUUUGGAAUUCUCGGGUGCCAA | 1.31

Excerpt of the above (sample 3):
Sequence | fluorescence intensity [a.u.]
AAAGCGGTAATTTGTACGGTGGGTGCAGATATCTATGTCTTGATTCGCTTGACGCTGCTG | 79.5
AGGGCGGGAATTTCACATGTGGCTTTTTGCATAATCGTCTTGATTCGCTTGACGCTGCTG | 119
CGTCCTAGTGATTGTCTCGTGGGTGCCATGAGGAAGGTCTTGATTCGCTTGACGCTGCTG | 137
TTTCTCGAATTTTTGCACGTGAAAACGGTGAACCTCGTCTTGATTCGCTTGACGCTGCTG | 1370
GTCTTGTCTCATTGGCGCGTGGGTGTCCCCACTTCAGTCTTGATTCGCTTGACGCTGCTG | 88.6
CTAACGAAGGTTTGATACGTGGGTGACAAGCCAAGTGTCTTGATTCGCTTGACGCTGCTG | 76.5
CTTCTGTAAATTTGTGTTGTGGGTGGACGCGCCCCGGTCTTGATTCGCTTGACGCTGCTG | 93.2
AAAGCGGTAATTTGTCATGTGGGTGCAGATATCTATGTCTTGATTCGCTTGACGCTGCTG | 217
